Results from different studies.
A part holds a random share of what one study measured.

Sample 1
Target: Protein max, full length (MAX, Homo sapiens, UniProt P61244-2, residues 1-151)
Technique: protein-binding microarray
Molecule type: double-stranded DNA, one strand shown
Sample: in vitro
Concentration: not given
Notes: k-mer, scored over probes, only values ≥0.25
Direction: higher = stronger binding
Quantity: E-score
CCCCTCCA: 0.307
CCCTCCAC: 0.255
AGCGTGCG: 0.43
AAATCACG: 0.375
CCAGTCAC: 0.292

Sample 2
Target: Interferon regulatory factor 5, full length, phosphomimetic (IRF5, Homo sapiens, UniProt Q13568-2, residues 1-514, S451D/S453D/S456D/S462D)
Technique: protein-binding microarray
Molecule type: double-stranded DNA, one strand shown
Sample: in vitro
Concentration: 940 nM top
Notes: 60-bp whole probe
Together with: salmon DNA 0.4 mg/ml
Reference: random background probes
Direction: higher = stronger binding
Quantity: fitted relative affinity
All sequences stand within: GCCTAGCAC … GTCTTGATTCGCTTGACGCTGCTG
TTAGGACTGGGTACTGGGTTAGTGCTA: -0.492 z-score
GACGGTTTCCTTTTCCTGAGGTGCTAG: 1.74 z-score
TCAGATAACTTTTTTTTACTGTGCTAG: 0.355 z-score
TTGGGTATCCTTATCCTTTAGTGCTAG: 0.301 z-score
TGAGATTTCAGTCTCGATTAGTGCTAG: 3.42 z-score

Sample 3
Target: Sal-like protein 4, full length isoform B (SALL4, Homo sapiens, UniProt Q9UJQ4-2, residues 1-616)
Technique: universal PBM
Molecule type: double-stranded DNA, one strand shown
Sample: in vitro
Concentration: not given
Notes: 8-mer, flanks averaged, mean of replicates
Direction: higher = stronger binding
Quantity: E-score
CGAAATTA: 0.249
ATGTAAAA: 0.304
GAGGCTTA: 0.00273
CGTTCCTC: -0.218
AAGCCCTC: -0.179

Further values, each from its own experiment
PhoQ, residues 284 288 289 292 302 303 ALASRC  fold induction (PhoP, residues 12 14 15 18 19 AQALL (Escherichia coli, UniProt P23836); Sort-seq, item: YFP reporter; E. coli; PhoQ-PhoP variant library, together with: 10 µM Mg2+; reference: high Mg2+ state, higher = stronger signaling): 7.4
